Results pooled from the literature.
Lines come from different studies, so protocols differ. ± marks the error that the study gave.
GLP1R: Glucagon-like peptide 1 receptor (GLP1R, Homo sapiens, UniProt P43220)
KCNT1: Potassium channel subfamily T member 1 (KCNT1, Homo sapiens, UniProt Q5JUK3)
GPR17 long isoform: Uracil nucleotide/cysteinyl leukotriene receptor, long isoform (GPR17, Homo sapiens, UniProt Q13304)
AHR: Aryl hydrocarbon receptor (AHR, Homo sapiens, UniProt P35869)

By UniProt entry, the sequences of proteins in these tests, tags left out. Residues count along the entry.
UniProt P43220, whole entry, looked up: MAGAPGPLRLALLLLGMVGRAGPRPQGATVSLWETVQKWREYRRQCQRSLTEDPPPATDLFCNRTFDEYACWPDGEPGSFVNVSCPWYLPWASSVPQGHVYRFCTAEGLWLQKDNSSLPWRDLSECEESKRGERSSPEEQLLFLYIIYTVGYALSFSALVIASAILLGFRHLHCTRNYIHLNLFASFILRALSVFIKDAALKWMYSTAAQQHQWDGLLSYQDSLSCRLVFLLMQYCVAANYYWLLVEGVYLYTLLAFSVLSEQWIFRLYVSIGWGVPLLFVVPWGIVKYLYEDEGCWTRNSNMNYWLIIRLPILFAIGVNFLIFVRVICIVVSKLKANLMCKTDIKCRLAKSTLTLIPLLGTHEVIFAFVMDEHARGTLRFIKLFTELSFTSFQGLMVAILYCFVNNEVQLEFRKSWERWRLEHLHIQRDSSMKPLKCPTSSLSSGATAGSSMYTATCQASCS
UniProt P43220, 24-463 limits assumed: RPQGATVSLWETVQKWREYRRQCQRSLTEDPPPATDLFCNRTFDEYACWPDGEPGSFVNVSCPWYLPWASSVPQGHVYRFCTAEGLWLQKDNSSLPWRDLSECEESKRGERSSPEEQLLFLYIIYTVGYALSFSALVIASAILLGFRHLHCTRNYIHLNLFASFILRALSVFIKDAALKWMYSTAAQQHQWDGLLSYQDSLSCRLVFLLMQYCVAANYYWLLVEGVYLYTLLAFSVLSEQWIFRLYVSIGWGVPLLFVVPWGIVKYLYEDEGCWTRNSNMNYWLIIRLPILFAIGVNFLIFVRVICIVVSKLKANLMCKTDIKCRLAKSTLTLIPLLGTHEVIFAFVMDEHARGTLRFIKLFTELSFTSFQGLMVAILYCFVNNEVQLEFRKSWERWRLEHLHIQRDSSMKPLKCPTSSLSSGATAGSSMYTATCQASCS
UniProt Q5JUK3, whole entry: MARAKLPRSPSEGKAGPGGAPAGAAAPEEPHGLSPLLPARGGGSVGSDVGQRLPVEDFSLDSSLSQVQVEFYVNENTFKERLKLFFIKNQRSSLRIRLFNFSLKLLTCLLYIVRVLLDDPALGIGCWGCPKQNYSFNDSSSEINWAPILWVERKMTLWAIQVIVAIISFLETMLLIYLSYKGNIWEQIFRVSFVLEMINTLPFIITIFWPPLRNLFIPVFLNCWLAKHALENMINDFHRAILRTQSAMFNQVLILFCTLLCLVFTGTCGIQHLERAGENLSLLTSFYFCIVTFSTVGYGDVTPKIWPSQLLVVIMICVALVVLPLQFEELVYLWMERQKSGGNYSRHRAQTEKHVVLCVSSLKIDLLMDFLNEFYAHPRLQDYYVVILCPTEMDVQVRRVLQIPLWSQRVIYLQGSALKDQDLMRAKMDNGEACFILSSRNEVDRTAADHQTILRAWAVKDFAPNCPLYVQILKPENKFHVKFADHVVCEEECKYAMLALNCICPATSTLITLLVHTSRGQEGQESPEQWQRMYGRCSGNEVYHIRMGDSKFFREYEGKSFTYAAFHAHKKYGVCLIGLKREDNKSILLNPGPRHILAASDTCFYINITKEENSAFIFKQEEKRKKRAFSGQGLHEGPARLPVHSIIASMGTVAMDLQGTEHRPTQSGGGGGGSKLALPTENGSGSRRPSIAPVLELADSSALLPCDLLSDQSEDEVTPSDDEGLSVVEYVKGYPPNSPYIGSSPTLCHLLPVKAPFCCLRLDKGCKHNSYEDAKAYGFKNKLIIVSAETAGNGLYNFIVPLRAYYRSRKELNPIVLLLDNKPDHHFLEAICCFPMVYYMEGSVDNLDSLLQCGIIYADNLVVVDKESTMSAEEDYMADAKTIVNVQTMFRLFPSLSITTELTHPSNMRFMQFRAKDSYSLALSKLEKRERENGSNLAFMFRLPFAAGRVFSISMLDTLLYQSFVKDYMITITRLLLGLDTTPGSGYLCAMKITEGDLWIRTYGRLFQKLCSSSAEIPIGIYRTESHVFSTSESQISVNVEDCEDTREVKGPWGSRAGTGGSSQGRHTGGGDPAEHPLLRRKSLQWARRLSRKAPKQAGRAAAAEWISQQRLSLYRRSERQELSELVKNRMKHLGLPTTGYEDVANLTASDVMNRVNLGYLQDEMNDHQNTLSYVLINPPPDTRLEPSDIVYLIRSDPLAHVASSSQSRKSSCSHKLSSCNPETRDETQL
UniProt Q13304, whole entry: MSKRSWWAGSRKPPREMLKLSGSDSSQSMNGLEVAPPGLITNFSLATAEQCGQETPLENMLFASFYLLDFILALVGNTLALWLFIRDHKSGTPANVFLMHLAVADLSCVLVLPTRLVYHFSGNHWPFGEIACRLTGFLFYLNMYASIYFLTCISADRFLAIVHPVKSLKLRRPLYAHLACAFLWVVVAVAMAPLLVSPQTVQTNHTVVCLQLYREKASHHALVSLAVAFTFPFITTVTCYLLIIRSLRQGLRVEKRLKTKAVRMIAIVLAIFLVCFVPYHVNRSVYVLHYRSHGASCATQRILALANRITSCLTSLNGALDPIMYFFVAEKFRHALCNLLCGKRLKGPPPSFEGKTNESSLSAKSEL
UniProt P35869, whole entry, looked up: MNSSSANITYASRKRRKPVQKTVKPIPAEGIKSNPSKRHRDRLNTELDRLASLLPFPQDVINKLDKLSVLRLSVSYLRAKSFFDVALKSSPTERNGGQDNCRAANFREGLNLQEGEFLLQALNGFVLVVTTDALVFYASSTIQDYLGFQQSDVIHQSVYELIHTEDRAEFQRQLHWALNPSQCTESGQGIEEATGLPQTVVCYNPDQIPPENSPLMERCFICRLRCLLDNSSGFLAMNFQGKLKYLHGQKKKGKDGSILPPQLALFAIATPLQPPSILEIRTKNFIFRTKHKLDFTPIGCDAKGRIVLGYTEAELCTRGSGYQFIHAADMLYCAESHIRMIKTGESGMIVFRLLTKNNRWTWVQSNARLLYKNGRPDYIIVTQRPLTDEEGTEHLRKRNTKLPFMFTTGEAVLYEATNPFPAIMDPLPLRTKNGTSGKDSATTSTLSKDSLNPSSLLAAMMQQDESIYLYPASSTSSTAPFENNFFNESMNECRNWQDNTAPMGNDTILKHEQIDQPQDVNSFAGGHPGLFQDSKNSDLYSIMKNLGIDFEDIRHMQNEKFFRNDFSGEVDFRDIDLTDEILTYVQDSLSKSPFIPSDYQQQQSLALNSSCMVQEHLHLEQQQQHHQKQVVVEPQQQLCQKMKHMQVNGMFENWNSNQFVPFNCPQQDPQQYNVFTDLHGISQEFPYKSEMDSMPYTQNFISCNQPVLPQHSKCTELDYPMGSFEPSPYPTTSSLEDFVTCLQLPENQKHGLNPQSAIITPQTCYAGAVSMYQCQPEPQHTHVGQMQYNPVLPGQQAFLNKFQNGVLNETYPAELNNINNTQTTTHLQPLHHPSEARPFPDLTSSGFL
UniProt P30542, whole entry: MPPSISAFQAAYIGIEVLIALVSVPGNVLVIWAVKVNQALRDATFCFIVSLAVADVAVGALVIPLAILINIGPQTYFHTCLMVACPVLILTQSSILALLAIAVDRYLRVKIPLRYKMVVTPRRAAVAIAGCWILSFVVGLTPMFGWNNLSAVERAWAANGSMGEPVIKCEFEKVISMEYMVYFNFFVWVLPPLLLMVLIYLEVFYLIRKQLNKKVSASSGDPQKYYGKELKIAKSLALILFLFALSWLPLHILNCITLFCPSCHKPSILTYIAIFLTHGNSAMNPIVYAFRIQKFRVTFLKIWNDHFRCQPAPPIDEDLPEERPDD

| Structure (SMILES) | target | test | test system | setting | scale | Emax [%] |
| --- | --- | --- | --- | --- | --- | --- |
| Cc1ccc(S(=O)(=O)OCCc2cn(CCc3c(C)[nH]c4cc(Cl)cc(Cl)c34)nn2)cc1 | GLP1R | cAMP accumulation, positive allosteric modulator, HTRF | – | 0.6 µM, crude reaction product, with: GLP-1(9-36) at EC20 | baseline: BETP | 105 |
| COc1ccccc1-c1cc(C(F)(F)F)nc(S(C)(=O)=O)n1 | GLP1R | cAMP accumulation, positive allosteric modulator | HEK293T overexpressing target | with: GLP-1 at EC20 | – | 71 ± 15 |
| O=S(=O)(c1cccc(C(F)(F)F)c1)N1CCC(Cn2cnc3ccccc32)CC1 | KCNT1 | thallium flux, activator | HEK293 expressing KCNT1 | 30 µM | baseline: loxapine maximal response | 86 |
| Cc1ccc(C(NS(=O)(=O)c2cccs2)C(=O)Nc2ccc(Cl)cc2)cc1 (centres unmarked) | GPR17 long isoform | calcium mobilization, antagonist | 1321N1 stably expressing GPR17 | fitted at highest concentration | higher = stronger inhibition | 99.2 ± 3.09 |
| COC(=O)c1ccc(C(=O)c2c[nH]c3ccccc23)cn1 | AHR | reporter gene, agonist | – | – | baseline: ITE | 47 ± 1 |
| O=C(Nc1ccc(Cl)cc1)C(NS(=O)(=O)c1cccs1)c1ccc(-c2ccccc2)cc1 (centres unmarked) | GPR17 long isoform | calcium mobilization, antagonist | 1321N1 stably expressing GPR17 | fitted at highest concentration | higher = stronger inhibition | 91.9 ± 4.8 |
| Cc1[nH]c2cc(Cl)cc(Cl)c2c1CCn1cc(CCCCO)nn1 | GLP1R | cAMP accumulation, positive allosteric modulator, HTRF | – | 0.6 µM, crude reaction product, with: GLP-1(9-36) at EC20 | baseline: BETP | 82.6 |
| Cc1cccc2ncn(CC3CCN(S(=O)(=O)c4cccc(C(F)(F)F)c4)CC3)c12 | KCNT1 | thallium flux, activator | HEK293 expressing KCNT1 | 30 µM | baseline: loxapine maximal response | 30 |
| CC(C)(Cn1cc(CN[C@@H]2CCc3ccccc32)nn1)c1c[nH]c2ccccc12 | GLP1R | cAMP accumulation, positive allosteric modulator, HTRF | – | 0.6 µM, purified compound, with: GLP-1(9-36) at EC20 | baseline: BETP | 108 |
| COc1cccc(C(=O)c2c[nH]c3ccccc23)n1 | AHR | reporter gene, agonist | – | – | baseline: ITE | 48 ± 3 |
| O=C(Nc1cccc(Br)c1)C(NS(=O)(=O)c1cccs1)c1ccccc1 (centres unmarked) | GPR17 long isoform | calcium mobilization, antagonist | 1321N1 stably expressing GPR17 | fitted at highest concentration | higher = stronger inhibition | 74.9 ± 1.88 |
| Cc1[nH]c2cc(Cl)cc(Cl)c2c1CCn1cc(CN2CCS(=O)(=O)CC2)nn1 | GLP1R | cAMP accumulation, positive allosteric modulator, HTRF | – | 0.6 µM, purified compound, with: GLP-1(9-36) at EC20 | baseline: BETP | 101 ± 3 |
| COc1cnc(C(=O)c2c[nH]c3ccccc23)cn1 | AHR | reporter gene, agonist | – | – | baseline: ITE | 30 ± 2 |
| O=C(Nc1ccc(Cl)cc1)C(NS(=O)(=O)c1ccc(Br)cc1)c1ccccc1 (centres unmarked) | GPR17 long isoform | calcium mobilization, antagonist | 1321N1 stably expressing GPR17 | fitted at highest concentration | higher = stronger inhibition | 99.7 ± 9.28 |
| CCCC(O)c1cn(CCc2c(C)[nH]c3cc(Cl)cc(Cl)c23)nn1 (centres unmarked) | GLP1R | cAMP accumulation, positive allosteric modulator, HTRF | – | 0.6 µM, purified compound, with: GLP-1(9-36) at EC20 | baseline: BETP | 101 ± 7 |
| CCS(=O)(=O)c1nc(-c2ccc(F)cc2)cc(C(F)F)n1 | GLP1R | cAMP accumulation, positive allosteric modulator | HEK293T overexpressing target | with: GLP-1 at EC20 | – | 76 ± 1.6 |
| COc1ccc2ncn(CC3CCN(S(=O)(=O)c4cccc(C(F)(F)F)c4)CC3)c2c1 | KCNT1 | thallium flux, activator | HEK293 expressing KCNT1 | 30 µM | baseline: loxapine maximal response | 88 |
| O=C(Nc1ccc(Cl)cc1)C(NS(=O)(=O)c1cccs1)c1ccccc1F (centres unmarked) | GPR17 long isoform | calcium mobilization, antagonist | 1321N1 stably expressing GPR17 | fitted at highest concentration | higher = stronger inhibition | 78.8 ± 2.42 |
| Cc1cccc(CSc2nc(N)c(C#N)c(-c3cccc(F)c3)c2C#N)n1 | ADORA1 (Homo sapiens, UniProt P30542) | cAMP accumulation | – | – | baseline: N6-cyclopentyladenosine | 20 ± 3.5 |
| O=C(Nc1ccc(Cl)cc1)C(NS(=O)(=O)c1cccs1)c1ccccc1Cl (centres unmarked) | GPR17 long isoform | calcium mobilization, antagonist | 1321N1 stably expressing GPR17 | fitted at highest concentration | higher = stronger inhibition | 118 ± 1.54 |
| COc1cc(C(=O)c2c[nH]c3ccccc23)ccn1 | AHR | reporter gene, agonist | – | – | baseline: ITE | 66 ± 7 |
| COc1cccc2ncn(CC3CCN(S(=O)(=O)c4cccc(C(F)(F)F)c4)CC3)c12 | KCNT1 | thallium flux, activator | HEK293 expressing KCNT1 | 30 µM | baseline: loxapine maximal response | 74 |
| COC(=O)Cc1ccc(C(NS(=O)(=O)c2cccs2)C(=O)Nc2ccc(Cl)cc2)cc1 (centres unmarked) | GPR17 long isoform | calcium mobilization, antagonist | 1321N1 stably expressing GPR17 | fitted at highest concentration | higher = stronger inhibition | 137 ± 4.38 |
| CC(C)(Cn1cc(-c2ccc(B(O)O)cc2)nn1)c1c[nH]c2ccccc12 | GLP1R | cAMP accumulation, positive allosteric modulator, HTRF | – | 0.6 µM, crude reaction product, with: GLP-1(9-36) at EC20 | baseline: BETP | 97 |
| O=S(=O)(c1cccc(C(F)(F)F)c1)N1CCC(Cn2cnc3cccc(C(F)(F)F)c32)CC1 | KCNT1 | thallium flux, activator | HEK293 expressing KCNT1 | 30 µM | baseline: loxapine maximal response | 40 |
| Cc1[nH]c2cc(Cl)cc(Cl)c2c1CCn1cc(CNC(N)=O)nn1 | GLP1R | cAMP accumulation, positive allosteric modulator, HTRF | – | 0.6 µM, purified compound, with: GLP-1(9-36) at EC20 | baseline: BETP | 105 ± 2 |
| O=C(Nc1ccc(Cl)cc1)C(NS(=O)(=O)c1cccs1)c1ccc(F)cc1 (centres unmarked) | GPR17 long isoform | calcium mobilization, antagonist | 1321N1 stably expressing GPR17 | fitted at highest concentration | higher = stronger inhibition | 93 ± 8.02 |
| Cc1[nH]c2cc(Cl)cc(Cl)c2c1CCn1cc(CCCC#N)nn1 | GLP1R | cAMP accumulation, positive allosteric modulator, HTRF | – | 0.6 µM, crude reaction product, with: GLP-1(9-36) at EC20 | baseline: BETP | 96.4 |
| Cc1ccc2ncn(CC3CCN(S(=O)(=O)c4cccc(C(F)(F)F)c4)CC3)c2c1 | KCNT1 | thallium flux, activator | HEK293 expressing KCNT1 | 30 µM | baseline: loxapine maximal response | 67 |
